{"data": "Published values gathered from unrelated publications", "note": "Parts stem from different laboratories: compare values within a part only. Substitutions count along the parent as printed."}
{"data": "Series 1", "target": "TEF, bZIP domain (human)", "technique": "DHFR protein complementation", "sample": "yeast", "notes": "single substitutions, most at no-binding floor", "baseline": "wild-type JUN-FOS pair", "reading": "higher = stronger binding", "starting sequence": "JUN, bZIP domain (human); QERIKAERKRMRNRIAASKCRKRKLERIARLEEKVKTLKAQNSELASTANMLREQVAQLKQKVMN; partner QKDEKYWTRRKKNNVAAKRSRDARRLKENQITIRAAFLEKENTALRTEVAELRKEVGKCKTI"}
{"Variant": "V35A", "binding fitness": "-1.32 natural log"}
{"Variant": "V35L", "binding fitness": "-1.51 natural log"}
{"Variant": "K39L", "binding fitness": "-1.53 natural log"}
{"Variant": "A46P", "binding fitness": "-1.44 natural log"}
{"Variant": "Q55Y", "binding fitness": "-1.27 natural log"}
{"Variant": "A46L", "binding fitness": "-1.47 natural log"}
{"Variant": "E32S", "binding fitness": "-1.45 natural log"}
{"Variant": "E33P", "binding fitness": "-1.47 natural log"}
{"Variant": "T48I", "binding fitness": "-1.12 natural log"}
{"Variant": "S47R", "binding fitness": "-1.32 natural log"}
{"Variant": "A29S", "binding fitness": "-1.33 natural log"}
{"Variant": "E44L", "binding fitness": "-1.44 natural log"}
{"Variant": "A49D", "binding fitness": "-1.46 natural log"}
{"Variant": "T48P", "binding fitness": "-1.51 natural log"}
{"Variant": "T48S", "binding fitness": "-1.51 natural log"}
{"Variant": "A46E", "binding fitness": "-1.51 natural log"}
{"Variant": "K39S", "binding fitness": "-1.48 natural log"}
{"Variant": "A46M", "binding fitness": "-1.25 natural log"}
{"Variant": "E32N", "binding fitness": "-1.3 natural log"}
{"Variant": "Q41I", "binding fitness": "-1.48 natural log"}
{"Variant": "A49N", "binding fitness": "-1.46 natural log"}
{"Variant": "N42Y", "binding fitness": "-1.49 natural log"}
{"Variant": "L59H", "binding fitness": "-1.5 natural log"}
{"Variant": "K36T", "binding fitness": "-1.16 natural log"}
{"data": "Series 2", "target": "Centromere-binding protein 1, full length, N-terminal tag (CBF1, Saccharomyces cerevisiae, UniProt P17106, residues 1-351)", "technique": "protein-binding microarray", "form": "double-stranded DNA, one strand shown", "sample": "in vitro", "concentration": "0.8 µM", "notes": "whole 60-bp probe, no competitor", "reading": "higher = stronger binding", "shared flanks, not repeated": "… GTCTTGATTCGCTTGACGCTGCTG", "chain of UniProt P17106 (whole entry, looked up)": "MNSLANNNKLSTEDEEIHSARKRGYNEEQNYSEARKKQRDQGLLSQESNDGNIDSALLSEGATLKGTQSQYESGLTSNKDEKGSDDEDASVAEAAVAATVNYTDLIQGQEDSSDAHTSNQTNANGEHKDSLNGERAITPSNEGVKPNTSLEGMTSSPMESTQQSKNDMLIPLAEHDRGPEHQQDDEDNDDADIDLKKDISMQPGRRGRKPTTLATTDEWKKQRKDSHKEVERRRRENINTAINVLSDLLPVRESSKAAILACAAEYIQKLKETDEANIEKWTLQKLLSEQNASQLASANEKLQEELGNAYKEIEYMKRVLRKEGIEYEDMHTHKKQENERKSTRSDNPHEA"}
{"Strand": "GAAACAAACCTGTCACGTGCAACATTATGGGGTTAG", "fluorescence intensity [a.u.]": 17900}
{"Strand": "CCTAACTACTATAGGCGTGTGATATAGCTTCGTACA", "fluorescence intensity [a.u.]": 611}
{"Strand": "GAACATCTTTAGCACCACGCCTAACGCGTCAAATAG", "fluorescence intensity [a.u.]": 530}
{"Strand": "TGTACGAAGCTATCTCGTGATACTATAGTAGTTAGG", "fluorescence intensity [a.u.]": 1400}
{"Strand": "CTATTCTGACAACGTGTTGTCATACCTGTTACGTTC", "fluorescence intensity [a.u.]": 809}
{"Strand": "GAAGTTAGTCTTCATGTGGCGTATTACTTTTCTTAG", "fluorescence intensity [a.u.]": 541}
{"Strand": "CCTAACTACTATACGCACATGCTATAGCTTCGTACA", "fluorescence intensity [a.u.]": 628}
{"Strand": "CTATCATTGAAAAGGAACGTGATACAGACGTAATTC", "fluorescence intensity [a.u.]": 1480}
{"Strand": "CTACTGTGTAAACATCAGATGAAGCATTGCCTTTTC", "fluorescence intensity [a.u.]": 517}
{"Strand": "CTATATAAACTTCAACACGCCACCTGGTCTTGGTTC", "fluorescence intensity [a.u.]": 655}
{"Strand": "TGTACGAAGCTATACCTCGTGATTATAGTAGTTAGG", "fluorescence intensity [a.u.]": 1820}
{"Strand": "GAACCGTTTTTATTTCATGAGACAACCTTTCTGTAG", "fluorescence intensity [a.u.]": 598}
{"Strand": "CTAAACAAGAAACGTGACGGTACTCATAAAGCTTTC", "fluorescence intensity [a.u.]": 1900}
{"Strand": "GAATAATTTCTTGAGCACGAACTCGAAGCGTTTTAG", "fluorescence intensity [a.u.]": 548}
{"Strand": "CTACAATTAAAAAAACACGAGGAACAGAATGTCTTC", "fluorescence intensity [a.u.]": 830}
{"Strand": "CTATATTTATACTGTCACGAAATTTACAGGAAGTTC", "fluorescence intensity [a.u.]": 648}
{"Strand": "CCTAACTACTATAAGCACGTAAGATAGCTTCGTACA", "fluorescence intensity [a.u.]": 524}
{"Strand": "GAACTCCGGCCATCGTGGGTGACATTCGTATAGTAG", "fluorescence intensity [a.u.]": 498}
{"Strand": "CTATGTTTTTATAAGCACGTGACTATAATGTTATTC", "fluorescence intensity [a.u.]": 26900}
{"Strand": "GAAAGATACGATAGTCTCATGATGACTTTTTCTTAG", "fluorescence intensity [a.u.]": 574}
{"Strand": "CTAGCTCCCTTTTCTGATCTGATGTTCTCACGCTTC", "fluorescence intensity [a.u.]": 514}
{"Strand": "GAAGCTGCATGAGCATCGGTGACGGTGATTTCATAG", "fluorescence intensity [a.u.]": 508}
{"Strand": "CTAAACTTTTAGTAGCACGTTTATTATTGCTTTTTC", "fluorescence intensity [a.u.]": 673}
{"Strand": "GAAAAAGAGAGAGCACACACGTTATAAACTACCTAG", "fluorescence intensity [a.u.]": 531}
{"Strand": "CTATTTGCTCTTTATCACCACGCTTTTCCTCTCTTC", "fluorescence intensity [a.u.]": 534}
{"data": "Series 3", "organism": "Saccharomyces cerevisiae", "observed": "cell growth", "technique": "competitive growth deep sequencing", "form": "peptide", "notes": "peptide tiling library", "added": "cyclin E2-Cln2 fusion", "reading": "direction not given"}
{"Molecule": "EHCRVLFLDHVMYTIH", "enrichment score": -1.39}
{"Molecule": "GPVKLEFDVSDGAT", "enrichment score": 0.282}
{"Molecule": "DKYDEGLYRFNSLNDL", "enrichment score": 0.333}
{"Molecule": "PHKTFRKLRLFDTPHT", "enrichment score": -1.82}
{"Molecule": "RQVRRDLFAF", "enrichment score": -0.334}
{"Molecule": "QYQVVDDIVSKLVFDF", "enrichment score": 0.612}
{"Molecule": "KRCATPVIIDEILPSK", "enrichment score": 0.642}
{"Molecule": "LENIEPLQVSFAVLSS", "enrichment score": 1.08}
{"Molecule": "NSMKELNFSHLPSNSV", "enrichment score": 0.567}
{"Molecule": "SPPRGRRLFPPGPAGF", "enrichment score": -0.503}
{"Molecule": "NEGVSNAVRRSLYIRD", "enrichment score": -0.901}
{"Molecule": "ASVLSKPIFCFVKD", "enrichment score": 0.106}
{"Molecule": "KVRRNLFNQELLSP", "enrichment score": 0.956}
{"data": "Series 4", "target": "Histone acetyltransferase KAT6A, winged helix 2, GST fusion (KAT6A, Homo sapiens, UniProt Q92794, residues 85-181)", "technique": "protein binding microarray", "form": "double-stranded DNA, one strand shown", "sample": "in vitro", "concentration": "not given", "notes": "8-mer, flanks averaged, mean of 2 arrays, mostly near background", "baseline": "not given", "reading": "higher = stronger binding", "Residues (chain)": "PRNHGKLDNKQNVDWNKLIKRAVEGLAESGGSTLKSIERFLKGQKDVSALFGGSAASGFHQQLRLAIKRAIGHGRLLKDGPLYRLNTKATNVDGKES"}
{"Strand": "ACGTCCAA", "E-score": -0.218}
{"Strand": "ACTTAGCG", "E-score": -0.059}
{"Strand": "GGAAACAC", "E-score": -0.013}
{"Strand": "CAACAGGA", "E-score": -0.237}
{"Strand": "TAGGGTAA", "E-score": -0.0532}
{"Strand": "GGTACAAA", "E-score": -0.106}
{"Strand": "CGCTTTGC", "E-score": 0.159}
{"Strand": "AAGGCCAC", "E-score": -0.101}
{"Strand": "ACCCCTAG", "E-score": -0.249}
{"Strand": "CAACATTC", "E-score": -0.213}
{"Strand": "CGTCTCTC", "E-score": -0.0855}
{"Strand": "AGACACTC", "E-score": -0.0486}
{"Strand": "AGATATTA", "E-score": -0.099}
{"Strand": "GCGATTGA", "E-score": -0.0337}
{"Strand": "CATAATTC", "E-score": -0.0803}
{"note": "For quick reference, copied from above (series 2):"}
{"Strand": "CCTAACTACTATAAGCACGTAAGATAGCTTCGTACA", "fluorescence intensity [a.u.]": 524}
{"Strand": "GAAACAAACCTGTCACGTGCAACATTATGGGGTTAG", "fluorescence intensity [a.u.]": 17900}
{"Strand": "CTATTCTGACAACGTGTTGTCATACCTGTTACGTTC", "fluorescence intensity [a.u.]": 809}
{"Strand": "GAACCGTTTTTATTTCATGAGACAACCTTTCTGTAG", "fluorescence intensity [a.u.]": 598}
{"Strand": "GAAAAAGAGAGAGCACACACGTTATAAACTACCTAG", "fluorescence intensity [a.u.]": 531}
{"Strand": "CTATATTTATACTGTCACGAAATTTACAGGAAGTTC", "fluorescence intensity [a.u.]": 648}
{"Strand": "CTATCATTGAAAAGGAACGTGATACAGACGTAATTC", "fluorescence intensity [a.u.]": 1480}
{"Strand": "GAAGTTAGTCTTCATGTGGCGTATTACTTTTCTTAG", "fluorescence intensity [a.u.]": 541}
{"Strand": "CTAAACTTTTAGTAGCACGTTTATTATTGCTTTTTC", "fluorescence intensity [a.u.]": 673}
{"Strand": "CCTAACTACTATACGCACATGCTATAGCTTCGTACA", "fluorescence intensity [a.u.]": 628}
